Published values of several laboratories.
Each numbered part is a random draw from the data of one study; scales do not carry over between parts.

Study 1
Target: RING finger protein unkempt homolog, zinc fingers 1-6, GST-SBP tag (UNK, Homo sapiens, UniProt Q9C0B0, residues 30-357)
Method: RNA Bind-n-Seq
Form: RNA
Sample: in vitro
Tested at: not given
Notes: RNA with constant flanks, ends assumed
Reference: input RNA pool
Reading: higher = stronger binding
Residues (chain): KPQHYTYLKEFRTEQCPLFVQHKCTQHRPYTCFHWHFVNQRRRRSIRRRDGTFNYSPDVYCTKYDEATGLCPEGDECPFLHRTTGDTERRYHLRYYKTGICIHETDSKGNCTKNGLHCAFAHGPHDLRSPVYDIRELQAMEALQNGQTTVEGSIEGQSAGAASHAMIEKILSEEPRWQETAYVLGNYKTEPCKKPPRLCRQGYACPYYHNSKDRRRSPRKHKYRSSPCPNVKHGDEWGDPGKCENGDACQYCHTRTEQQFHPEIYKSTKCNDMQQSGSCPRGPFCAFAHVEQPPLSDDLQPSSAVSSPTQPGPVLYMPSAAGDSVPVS
With `GGGAGUUCUACAGUCCGACGAUCGCCAUGACGCUGAAUGAGAGCAACAUCUCUGCUGUCACCGGACUUAUCCGAUGUCAGUUAACCGAGGGGCAGUUGCAAGAUGCAGACCAGCAGUUGGAGUUCUUCAGUGAAUUCCAGCAGCAACAGAGGAUUGAGCAUCA` the bound/input enrichment was 0.128 ratio.
For `GGGAGUUCUACAGUCCGACGAUCUCAGAAUAAUUUCAUCACUGGAGUCAGAGCGAUAAAUGAGUUCUGCCUCAAAUCCAGUGAUCCCGAACAACUUCGAAAAAUCAGACGACGAAGUCCCCAUGAAGAUACUGAGUCUUUUACCAACAGAGGAUUGAGCAUCA`, the bound/input enrichment was 0.0539 ratio.
The bound/input enrichment of `GGGAGUUCUACAGUCCGACGAUCGGAAGAGUUGGGCUGUGGAAGGACAUCUUCACCGUCUCCAUGAACGAGAAGUUUGAUCCCGUGUACAAACAGAAGAUGGGGAAGUGUGACCUCACGUUUGACUUUUAUCUAUAAUACCAGCAACAGAGGAUUGAGCAUCA` is reported as 0.102 ratio.
For `GGGAGUUCUACAGUCCGACGAUCCUUUGAAUCUAAGGGAUAUAAAAAGAACCUAAUUACAGUAGAUACAAUGAAAAUAAUGGCUACCGAUGUUUGGACUGGAAGCAGUGUGGCCAAUAUGACUUAAAGAGACCUUAAAAUAUACAACAGAGGAUUGAGCAUCA`, the bound/input enrichment was 23.9 ratio.

Study 2
Target: RNA binding protein fox-1 homolog 2, RRM domain, GST-SBP tag (RBFOX2, Homo sapiens, UniProt O43251-10, residues 100-194)
Method: RNA Bind-n-Seq
Form: RNA
Sample: in vitro
Tested at: 365 nM
Notes: natural RNA segment, single round, ends assumed
Reference: no-protein control
Reading: higher = stronger binding
Constant ends, left off below: GGGAGUUCUACAGUCCGACGAUC … UGGAAUUCUCGGGUGCCAA
Residues (chain): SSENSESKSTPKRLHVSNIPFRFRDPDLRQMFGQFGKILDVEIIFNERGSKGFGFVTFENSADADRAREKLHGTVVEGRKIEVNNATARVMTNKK
`CUUAGCCCGAGGGUAGAAGUUGAUGUCAUGUCAGAUAGUUGGUGAAGACCUUUCUAGGGGGCCUGGUUCUGGACCCGCUACCACUGGCCUCAAGACUCUUUUGCCUCAGU` — result for “RBNS enrichment (R)”: 0.34.
For `GUCUGCAGAUGGAAAUCAUUCCCCACUGGCAGUAUCUGCUCGGGUUCAACGCUCUGUCCUCUGAGGAGUGUUGUGUCUGAUUUUAUUUUAAAAGUUCACGGUAUGAGAGU`, “RBNS enrichment (R)” read 0.529.
`UCCGGCCCCCAGGCCAGGGUAGUGGACAAGCCUUGGAGGAGUGGUGACAGUUUGCAGCAGUGAGGAAGGACACGCACACACACACACACACACCACAGAAAAGCACAACC`: “RBNS enrichment (R)” 0.745.
`AUGCCUUUGCAGUGGUCUCCCGGGCAUUGGGCAGGGCCUAGCCUUUUGCAGCCCCCAGAGGACCUUGCCUGCAUAAAGCACUCAGAAGGGUUAGCCACCUGGUGAUUUUG` — result for “RBNS enrichment (R)”: 0.41.
For `GUCCUGAAUAGCUUACUAUUCUGUCAUGGUAAAACACAGCCUUUCUGUUCAAAUAUUAGGCCAAUCUGUAGGUGGAAAAAUUAACCAAUAAAAUAAAGACAGCUUUGGAA`, “RBNS enrichment (R)” read 0.615.
For `AUGAAGAUACCACGGCUGUUCUGGUCAGCUCCUACCCUUACAUCUCUGUGUGUGUCGUCCCUCAUCCCGUGUAAAUAUCACCAUCCUUGUGACACUGGCACUAAGCAAUG`, “RBNS enrichment (R)” read 0.751.
`AAGCCUUUAUGCCUAUGAGAACUCCAUAGCUGGGUCUCACCACUAAUAAACAGACCUGCACCUCUGGAAGGAUCCACUGUGUGUCUGGUACCACACUGGGCCUUUCAAAG`: “RBNS enrichment (R)” 0.368.

Study 3
Target: Histone acetyltransferase KAT6A, winged helix 1, GST fusion (KAT6A, Homo sapiens, UniProt Q92794, residues 1-85)
Method: protein binding microarray
Form: double-stranded DNA, one strand shown
Sample: in vitro
Tested at: not given
Notes: 8-mer, flanks averaged, mean of 2 arrays, mostly near background
Reference: not given
Reading: higher = stronger binding
Residues (chain): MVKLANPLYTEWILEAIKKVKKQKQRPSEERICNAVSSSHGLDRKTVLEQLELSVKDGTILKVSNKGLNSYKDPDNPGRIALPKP
`ACACGGGT` gave an E-score of 0.174.
The E-score of `ACGTAGAG` is reported as -0.1.
With `CGTGCACG` the E-score was 0.155.
`TGAAATAA` has an E-score of -0.299.
For `CGCCAGCC`, the E-score was 0.23.

Single results of other studies
`PhoQ, residues 284 288 289 292 302 303 HSSMNL` has a fold induction of 8.28 (PhoP, residues 12 14 15 18 19 LYFRQ (Escherichia coli, UniProt P23836); Sort-seq, measured: YFP reporter; E. coli; PhoQ-PhoP variant library, together with: 10 µM Mg2+; reference: high Mg2+ state, higher = stronger signaling).

A few entries again (study 2):
`CUUAGCCCGAGGGUAGAAGUUGAUGUCAUGUCAGAUAGUUGGUGAAGACCUUUCUAGGGGGCCUGGUUCUGGACCCGCUACCACUGGCCUCAAGACUCUUUUGCCUCAGU` — result for “RBNS enrichment (R)”: 0.34.
